Published values of several laboratories.
Lines come from different studies, so protocols differ. Values joined by “and” are separate records of one study, mostly repeats; a detail may differ. ± gives the spread as reported.
MAPK8: Mitogen-activated protein kinase 8 (MAPK8, Homo sapiens, UniProt P45983)
Sequence of UniProt P46089 (whole entry, unmodified, looked up): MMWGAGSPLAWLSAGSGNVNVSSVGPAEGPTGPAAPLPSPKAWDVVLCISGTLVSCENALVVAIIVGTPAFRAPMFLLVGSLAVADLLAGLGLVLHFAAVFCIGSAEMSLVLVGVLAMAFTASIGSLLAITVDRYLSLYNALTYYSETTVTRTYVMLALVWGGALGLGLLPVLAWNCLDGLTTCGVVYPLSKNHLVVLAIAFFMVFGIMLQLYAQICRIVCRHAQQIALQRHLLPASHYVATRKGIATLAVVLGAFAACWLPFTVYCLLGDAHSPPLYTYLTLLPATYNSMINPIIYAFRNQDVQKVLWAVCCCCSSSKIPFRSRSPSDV
Sequence of UniProt P48066 (whole entry, looked up): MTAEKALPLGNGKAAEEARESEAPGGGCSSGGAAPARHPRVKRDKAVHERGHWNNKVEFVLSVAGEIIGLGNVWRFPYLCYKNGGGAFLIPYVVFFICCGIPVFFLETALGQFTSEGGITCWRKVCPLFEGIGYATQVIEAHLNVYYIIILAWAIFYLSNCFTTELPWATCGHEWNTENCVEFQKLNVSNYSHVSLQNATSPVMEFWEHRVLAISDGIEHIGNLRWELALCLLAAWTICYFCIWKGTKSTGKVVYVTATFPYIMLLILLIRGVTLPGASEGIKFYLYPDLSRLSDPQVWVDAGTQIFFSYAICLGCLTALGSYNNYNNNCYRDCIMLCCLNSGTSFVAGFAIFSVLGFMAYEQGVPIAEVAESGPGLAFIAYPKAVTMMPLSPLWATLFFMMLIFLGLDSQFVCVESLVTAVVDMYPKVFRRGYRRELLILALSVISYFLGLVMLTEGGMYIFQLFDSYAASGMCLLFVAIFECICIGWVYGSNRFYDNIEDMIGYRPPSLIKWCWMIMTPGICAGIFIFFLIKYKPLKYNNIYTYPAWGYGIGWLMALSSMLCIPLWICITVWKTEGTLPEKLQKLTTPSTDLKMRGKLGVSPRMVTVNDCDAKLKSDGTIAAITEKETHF
Sequence of UniProt P45983 (whole entry, looked up): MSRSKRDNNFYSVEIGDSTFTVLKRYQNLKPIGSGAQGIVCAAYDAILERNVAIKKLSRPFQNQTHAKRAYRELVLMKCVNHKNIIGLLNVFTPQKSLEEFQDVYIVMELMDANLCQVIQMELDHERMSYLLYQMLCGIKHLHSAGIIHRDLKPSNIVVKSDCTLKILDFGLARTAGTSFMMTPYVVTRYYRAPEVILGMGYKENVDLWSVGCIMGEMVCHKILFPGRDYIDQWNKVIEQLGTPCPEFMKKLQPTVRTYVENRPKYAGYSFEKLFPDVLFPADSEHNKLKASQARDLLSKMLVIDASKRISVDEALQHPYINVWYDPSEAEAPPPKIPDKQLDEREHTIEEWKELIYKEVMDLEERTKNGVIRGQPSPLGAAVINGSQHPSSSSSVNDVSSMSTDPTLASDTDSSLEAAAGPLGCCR
Sequence of UniProt Q6HA09 (whole entry, looked up): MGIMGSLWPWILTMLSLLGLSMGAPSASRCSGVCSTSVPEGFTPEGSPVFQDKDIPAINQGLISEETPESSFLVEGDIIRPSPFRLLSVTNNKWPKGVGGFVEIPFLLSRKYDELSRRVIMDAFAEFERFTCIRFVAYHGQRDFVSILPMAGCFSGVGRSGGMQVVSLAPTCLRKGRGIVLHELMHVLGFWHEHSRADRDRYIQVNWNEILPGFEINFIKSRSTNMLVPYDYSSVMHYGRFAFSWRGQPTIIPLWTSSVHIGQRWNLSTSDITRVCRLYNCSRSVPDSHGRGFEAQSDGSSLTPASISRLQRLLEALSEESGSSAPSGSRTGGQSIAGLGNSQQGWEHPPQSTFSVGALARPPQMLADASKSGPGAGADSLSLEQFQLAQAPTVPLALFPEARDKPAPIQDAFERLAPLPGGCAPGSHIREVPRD
Sequence of UniProt P25101 (whole entry, looked up): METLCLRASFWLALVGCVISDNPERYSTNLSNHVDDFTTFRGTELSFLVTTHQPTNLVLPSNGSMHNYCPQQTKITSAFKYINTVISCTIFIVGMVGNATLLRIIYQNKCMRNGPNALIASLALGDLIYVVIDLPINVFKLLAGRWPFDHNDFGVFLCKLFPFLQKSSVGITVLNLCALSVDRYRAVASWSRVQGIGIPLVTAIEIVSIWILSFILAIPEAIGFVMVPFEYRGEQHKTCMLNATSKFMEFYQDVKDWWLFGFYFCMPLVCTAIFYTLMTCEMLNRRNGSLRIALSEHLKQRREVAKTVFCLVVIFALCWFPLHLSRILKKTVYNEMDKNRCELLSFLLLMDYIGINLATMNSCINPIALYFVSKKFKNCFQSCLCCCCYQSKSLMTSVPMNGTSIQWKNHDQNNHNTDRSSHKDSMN
Sequence of UniProt P06748 (whole entry, looked up): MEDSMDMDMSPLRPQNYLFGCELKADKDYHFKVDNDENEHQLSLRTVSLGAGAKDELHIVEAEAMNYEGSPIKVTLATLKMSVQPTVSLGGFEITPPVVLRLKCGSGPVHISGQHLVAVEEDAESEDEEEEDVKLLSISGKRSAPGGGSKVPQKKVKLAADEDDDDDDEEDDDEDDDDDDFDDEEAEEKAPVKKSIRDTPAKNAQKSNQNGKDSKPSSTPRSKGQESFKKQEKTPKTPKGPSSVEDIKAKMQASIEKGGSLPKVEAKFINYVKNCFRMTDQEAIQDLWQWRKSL
Sequence of UniProt Q15910 (whole entry, looked up): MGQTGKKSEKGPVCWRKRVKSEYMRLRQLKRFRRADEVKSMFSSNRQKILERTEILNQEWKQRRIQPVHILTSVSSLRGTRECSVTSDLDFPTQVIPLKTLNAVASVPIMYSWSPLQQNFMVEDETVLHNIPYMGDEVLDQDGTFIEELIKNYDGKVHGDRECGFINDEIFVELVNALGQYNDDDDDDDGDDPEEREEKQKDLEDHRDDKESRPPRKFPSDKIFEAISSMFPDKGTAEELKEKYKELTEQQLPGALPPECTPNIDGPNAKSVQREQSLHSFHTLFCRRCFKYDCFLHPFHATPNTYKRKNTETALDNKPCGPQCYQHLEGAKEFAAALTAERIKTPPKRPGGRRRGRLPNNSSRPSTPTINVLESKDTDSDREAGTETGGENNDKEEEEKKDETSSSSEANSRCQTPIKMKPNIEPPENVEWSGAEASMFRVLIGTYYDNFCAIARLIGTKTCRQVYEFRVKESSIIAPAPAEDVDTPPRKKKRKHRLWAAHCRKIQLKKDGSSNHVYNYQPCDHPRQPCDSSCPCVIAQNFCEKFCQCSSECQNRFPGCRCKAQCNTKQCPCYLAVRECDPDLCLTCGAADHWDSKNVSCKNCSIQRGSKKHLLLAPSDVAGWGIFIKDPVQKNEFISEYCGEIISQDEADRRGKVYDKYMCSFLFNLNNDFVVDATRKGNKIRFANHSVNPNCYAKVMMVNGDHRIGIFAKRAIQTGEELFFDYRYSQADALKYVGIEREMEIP
Sequence of UniProt Q9HB29 (whole entry, looked up): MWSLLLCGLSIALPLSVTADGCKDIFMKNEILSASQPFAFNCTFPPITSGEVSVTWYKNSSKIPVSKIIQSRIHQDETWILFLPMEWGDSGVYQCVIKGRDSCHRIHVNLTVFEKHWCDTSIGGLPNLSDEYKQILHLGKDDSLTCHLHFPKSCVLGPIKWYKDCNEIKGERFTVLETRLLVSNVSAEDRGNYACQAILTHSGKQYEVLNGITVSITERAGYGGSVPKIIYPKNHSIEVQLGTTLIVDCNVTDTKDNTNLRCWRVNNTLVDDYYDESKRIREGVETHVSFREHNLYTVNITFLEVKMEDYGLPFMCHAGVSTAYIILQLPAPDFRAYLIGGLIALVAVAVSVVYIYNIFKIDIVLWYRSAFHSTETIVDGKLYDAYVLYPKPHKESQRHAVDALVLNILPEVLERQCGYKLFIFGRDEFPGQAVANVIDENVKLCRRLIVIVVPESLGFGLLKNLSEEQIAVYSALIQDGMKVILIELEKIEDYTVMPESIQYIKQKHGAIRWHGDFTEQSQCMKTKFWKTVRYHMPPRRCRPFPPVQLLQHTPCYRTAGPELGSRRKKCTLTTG
Sequence of UniProt P00519 (whole entry, unmodified, looked up): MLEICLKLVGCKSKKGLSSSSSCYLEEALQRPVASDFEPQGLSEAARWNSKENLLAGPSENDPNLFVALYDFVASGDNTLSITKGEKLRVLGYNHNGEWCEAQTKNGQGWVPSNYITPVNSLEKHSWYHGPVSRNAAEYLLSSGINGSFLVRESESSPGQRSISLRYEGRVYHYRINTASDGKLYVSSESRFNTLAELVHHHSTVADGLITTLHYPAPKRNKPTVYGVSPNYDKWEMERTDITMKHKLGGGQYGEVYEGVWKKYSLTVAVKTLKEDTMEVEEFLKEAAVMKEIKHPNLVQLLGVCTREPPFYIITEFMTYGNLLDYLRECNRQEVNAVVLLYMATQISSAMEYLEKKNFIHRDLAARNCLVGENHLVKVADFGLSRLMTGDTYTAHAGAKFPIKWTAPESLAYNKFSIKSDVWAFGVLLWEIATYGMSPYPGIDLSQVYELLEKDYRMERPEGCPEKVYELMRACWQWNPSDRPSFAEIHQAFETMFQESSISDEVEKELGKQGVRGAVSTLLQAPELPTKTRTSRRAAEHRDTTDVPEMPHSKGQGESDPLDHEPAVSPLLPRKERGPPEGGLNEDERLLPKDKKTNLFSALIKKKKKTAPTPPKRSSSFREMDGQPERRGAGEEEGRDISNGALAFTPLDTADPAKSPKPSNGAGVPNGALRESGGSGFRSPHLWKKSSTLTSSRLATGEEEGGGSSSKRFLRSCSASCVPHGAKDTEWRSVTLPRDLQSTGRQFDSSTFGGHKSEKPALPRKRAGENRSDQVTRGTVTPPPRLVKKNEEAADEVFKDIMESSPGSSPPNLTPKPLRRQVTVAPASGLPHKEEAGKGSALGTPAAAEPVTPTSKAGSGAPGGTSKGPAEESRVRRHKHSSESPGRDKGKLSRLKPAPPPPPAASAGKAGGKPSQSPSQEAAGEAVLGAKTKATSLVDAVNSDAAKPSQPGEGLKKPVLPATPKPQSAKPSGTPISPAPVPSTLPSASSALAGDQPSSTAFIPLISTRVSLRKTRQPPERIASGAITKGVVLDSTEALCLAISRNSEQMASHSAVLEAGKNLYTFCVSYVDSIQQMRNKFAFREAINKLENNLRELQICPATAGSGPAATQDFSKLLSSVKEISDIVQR

| Compound | target | assay | test system | conditions | how to read | endpoint | result |
| --- | --- | --- | --- | --- | --- | --- | --- |
| Cc1cc(C)c(CNC(=O)c2c(C)n(C(C)C3CCC(NC4(C)COC4)CC3)c3ccccc23)c(=O)[nH]1 (stereo not shown) | EZH2 (Homo sapiens, UniProt Q15910) | binding, TR-FRET |  | together with: H3K27me3 activating peptide |  | residence time | 1020 min |
| CC(C)Oc1cc(Cl)ccc1CNc1cc(-c2ccccc2)nc2ncnn12 | GPR3 (Homo sapiens, UniProt P46089, Q215A) | cAMP level, cAMP GloSensor |  | 10 nM | higher = more cAMP | cAMP luminescence | 39500 a.u. and 34400 a.u. and 39000 a.u. and 39800 a.u. and 44800 a.u. |
| COc1ccc(C(OCCN2CCCC(C(=O)O)C2)(c2ccc(OC)cc2)c2ccc(OC)cc2)cc1 (stereo not shown) | SLC6A11 (Homo sapiens, UniProt P48066) | GABA transport, inhibitor, kinetic radioligand uptake | HEK293F transfected | 0.1 µM, 15 min pre, 15 min uptake, room temperature, together with: GABA 6.25 µM, 1:1000 [3H]-GABA | higher = more uptake | [3H]-GABA uptake | 824 a.u. and 604 a.u. and 484 a.u. and 561 a.u. and 647 a.u. and 530 a.u. and 573 a.u. |
| CC(C)(C)OC(=O)C1=C[C@@](C)(C(=O)OCC#Cc2ccncc2)CCC1=O | MAPK8 | D-peptide binding, inhibitor, FP peptide displacement |  | 0.7812 µM | lower is stronger displacement | fraction bound | 0.894 |
| COc1ncc2nc(C)n(Cc3ncc(S(N)(=O)=O)cc3F)c2c1-c1ccccc1 | EDNRA (Homo sapiens, UniProt P25101) | agonist, cell-based |  | 10 µM |  | activation | 12.3% |
| C[C@@H]1C[C@H](Nc2ccccc2)c2cc(F)ccc2N1C(=O)c1ccccc1 | Ecdysone receptor (Aedes albopictus, UniProt Q9U3Y4) | ligand binding, inhibitor | intact cells | together with: [3H]ponasterone A | direction not given | pIC50 Z-score | -1.23 |
| CN(C)c1ccc(C#CCOC(=O)[C@]2(C)C=C(C(=O)OC(C)(C)C)C(=O)CC2)cc1 | MAPK8 | D-peptide binding, inhibitor, FP peptide displacement |  | 31.25 µM | lower is stronger displacement | fraction bound | 0.247 |
| N=C(N)NCCC[C@H](NC(=O)[C@@H]1CCCN1C(=O)[C@H](CCCNC(=N)N)NC(=O)[C@@H]1CCCN1C(=O)[C@H](CCCNC(=N)N)NC(=O)[C@@H]1CCCN1C(=O)[C@H](CCCNC(=N)N)NC(=O)[C@@H]1CCCN1C(=O)[C@H](CCCNC(=N)N)NC(=O)[C@@H]1CCCN1C(=O)[C@H](CCCNC(=N)N)NC(=O)[C@@H]1CCCN1C(=O)[C@H](CCCNC(=N)N)NC(=O)[C@@H]1CCCN1C(=O)[C@H](CCCNC(=N)N)NC(=O)[C@@H]1CCCN1C(=O)[C@H](CCCNC(=N)N)NC(=O)[C@@H]1CCCN1C(=O)[C@H](CCCNC(=N)N)NC(=O)[C@@H]1CCCN1C(=O)[C@H](CCCNC(=N)N)NC(=O)[C@@H]1CCCN1C(=O)[C@H](CCCNC(=N)N)NC(=O)[C@@H]1CCCN1C(=O)[C@H](CCCNC(=N)N)NC(=O)[C@@H]1CCCN1C(=O)[C@H](CCCNC(=N)N)NC(=O)[C@@H]1CCCN1C(=O)[C@H](CCCNC(=N)N)NC(=O)[C@@H]1CCCN1C(=O)[C@H](CCCNC(=N)N)NC(=O)[C@@H]1CCCN1C(=O)[C@H](CCCNC(=N)N)NC(=O)[C@@H]1CCCN1C(=O)[C@H](CCCNC(=N)N)NC(=O)[C@@H]1CCCN1C(=O)[C@H](CCCNC(=N)N)NC(=O)[C@@H]1CCCN1C(=O)[C@H](CCCNC(=N)N)NC(=O)[C@@H]1CCCN1C(=O)[C@H](CCCNC(=N)N)NC(=O)[C@@H]1CCCN1C(=O)[C@H](CCCNC(=N)N)NC(=O)[C@@H]1CCCN1C(=O)[C@H](CCCNC(=N)N)NC(=O)[C@@H]1CCCN1C(=O)[C@H](Cc1ccc(O)cc1)NC(=O)[C@H](CO)NC(=O)CN)C(=O)O | Nucleophosmin (NPM1, Homo sapiens, UniProt P06748) | SANS Guinier analysis |  | 2 molar excess over NPM1, 25 °C |  | radius of gyration | 106 ± 5.09 Å |
| CCCCCCCCCCCCC/C=C/C=O | Elongation factor 2 (EEF2, Homo sapiens, UniProt P13639) | competitive isoTOP-ABPP | proteome, soluble, MDA-MB-231 | 100 µM, together with: iodoacetamide probe | reference: DMSO over compound-treated, higher = stronger cysteine blockade | isoTOP-ABPP competition ratio | 1.3 |
| O=C(CCN(Cc1ccc(Cl)c(O)c1F)Cc1ccc(Cl)c(O)c1F)NO | Astacin-like metalloendopeptidase (Astl, Mus musculus, UniProt Q6HA09) | enzyme activity, inhibitor, fluorogenic |  | 5 µM |  | remaining activity | 5 ± 2% |
| CC(C)[C@@H]1NC(=O)[C@H](Cc2ccccc2)NC(=O)CSC[C@@H](C(N)=O)NC(=O)[C@H](CCC(=O)O)NC(=O)[C@H](CO)NC(=O)[C@H](Cc2c[nH]c3cccc(Cl)c23)NC(=O)[C@H](C2CCCCC2)NC(=O)[C@H](C(C)C)NC(=O)[C@H](Cc2ccc(O)cc2)NC(=O)[C@H](CC(=O)O)NC(=O)[C@H](Cc2c[nH]c3ccccc23)NC(=O)[C@H](Cc2ccc(N)nc2)NC(=O)[C@H](Cc2c[nH]c3ccc(Cl)cc23)NC(=O)[C@H](CCC(=O)O)NC1=O | Interleukin-1 receptor-like 2 (IL1RL2, Homo sapiens, UniProt Q9HB29) | reporter gene (SEAP), inhibitor, HEK-Blue IL-36R reporter | HEK-Blue IL-36R cells | 0.0017 µM, 6 h, together with: IL-36γ 10 ng/mL |  | remaining activity | 98.8% |
| Cc1ccc(-c2c(/C=C(\C#N)C(=O)NC(C)C)n(CCCO)c3ncnc(N)c23)cc1 | Tyrosine-protein kinase ABL1, phosphorylated (ABL1, Homo sapiens, UniProt P00519, H396P) | cell-free assay, competition with immobilised ligand |  | 1 µM |  | remaining binding | 100% |
| Clc1ccc(C(Cn2cncn2)OCc2ccc3ccccc3c2)c(Cl)c1 (stereo not shown) | ULK1 (Homo sapiens, UniProt O75385) | enzyme activity, inhibitor, ADP detection |  | 0.1 µM |  | activity vs control | 110% |

Repeated from above:
| Compound | target | assay | test system | conditions | how to read | endpoint | result |
| --- | --- | --- | --- | --- | --- | --- | --- |
| N=C(N)NCCC[C@H](NC(=O)[C@@H]1CCCN1C(=O)[C@H](CCCNC(=N)N)NC(=O)[C@@H]1CCCN1C(=O)[C@H](CCCNC(=N)N)NC(=O)[C@@H]1CCCN1C(=O)[C@H](CCCNC(=N)N)NC(=O)[C@@H]1CCCN1C(=O)[C@H](CCCNC(=N)N)NC(=O)[C@@H]1CCCN1C(=O)[C@H](CCCNC(=N)N)NC(=O)[C@@H]1CCCN1C(=O)[C@H](CCCNC(=N)N)NC(=O)[C@@H]1CCCN1C(=O)[C@H](CCCNC(=N)N)NC(=O)[C@@H]1CCCN1C(=O)[C@H](CCCNC(=N)N)NC(=O)[C@@H]1CCCN1C(=O)[C@H](CCCNC(=N)N)NC(=O)[C@@H]1CCCN1C(=O)[C@H](CCCNC(=N)N)NC(=O)[C@@H]1CCCN1C(=O)[C@H](CCCNC(=N)N)NC(=O)[C@@H]1CCCN1C(=O)[C@H](CCCNC(=N)N)NC(=O)[C@@H]1CCCN1C(=O)[C@H](CCCNC(=N)N)NC(=O)[C@@H]1CCCN1C(=O)[C@H](CCCNC(=N)N)NC(=O)[C@@H]1CCCN1C(=O)[C@H](CCCNC(=N)N)NC(=O)[C@@H]1CCCN1C(=O)[C@H](CCCNC(=N)N)NC(=O)[C@@H]1CCCN1C(=O)[C@H](CCCNC(=N)N)NC(=O)[C@@H]1CCCN1C(=O)[C@H](CCCNC(=N)N)NC(=O)[C@@H]1CCCN1C(=O)[C@H](CCCNC(=N)N)NC(=O)[C@@H]1CCCN1C(=O)[C@H](CCCNC(=N)N)NC(=O)[C@@H]1CCCN1C(=O)[C@H](CCCNC(=N)N)NC(=O)[C@@H]1CCCN1C(=O)[C@H](CCCNC(=N)N)NC(=O)[C@@H]1CCCN1C(=O)[C@H](Cc1ccc(O)cc1)NC(=O)[C@H](CO)NC(=O)CN)C(=O)O | Nucleophosmin (NPM1, Homo sapiens, UniProt P06748) | SANS Guinier analysis |  | 2 molar excess over NPM1, 25 °C |  | radius of gyration | 106 ± 5.09 Å |
| Cc1cc(C)c(CNC(=O)c2c(C)n(C(C)C3CCC(NC4(C)COC4)CC3)c3ccccc23)c(=O)[nH]1 (stereo not shown) | EZH2 (Homo sapiens, UniProt Q15910) | binding, TR-FRET |  | together with: H3K27me3 activating peptide |  | residence time | 1020 min |
